Published values of several laboratories.
Lines come from different studies, so protocols differ. “And” joins repeats or separate records; there may be more than shown. ± gives the spread as reported. In brackets after ≈: the same amount, converted by molar mass.
HLA class I histocompatibility antigen, A alpha chain allele A*02:01: HLA class I histocompatibility antigen, A alpha chain, allele A*02:01 (Homo sapiens, UniProt P04439)
Chain of UniProt P35916 (whole entry, looked up): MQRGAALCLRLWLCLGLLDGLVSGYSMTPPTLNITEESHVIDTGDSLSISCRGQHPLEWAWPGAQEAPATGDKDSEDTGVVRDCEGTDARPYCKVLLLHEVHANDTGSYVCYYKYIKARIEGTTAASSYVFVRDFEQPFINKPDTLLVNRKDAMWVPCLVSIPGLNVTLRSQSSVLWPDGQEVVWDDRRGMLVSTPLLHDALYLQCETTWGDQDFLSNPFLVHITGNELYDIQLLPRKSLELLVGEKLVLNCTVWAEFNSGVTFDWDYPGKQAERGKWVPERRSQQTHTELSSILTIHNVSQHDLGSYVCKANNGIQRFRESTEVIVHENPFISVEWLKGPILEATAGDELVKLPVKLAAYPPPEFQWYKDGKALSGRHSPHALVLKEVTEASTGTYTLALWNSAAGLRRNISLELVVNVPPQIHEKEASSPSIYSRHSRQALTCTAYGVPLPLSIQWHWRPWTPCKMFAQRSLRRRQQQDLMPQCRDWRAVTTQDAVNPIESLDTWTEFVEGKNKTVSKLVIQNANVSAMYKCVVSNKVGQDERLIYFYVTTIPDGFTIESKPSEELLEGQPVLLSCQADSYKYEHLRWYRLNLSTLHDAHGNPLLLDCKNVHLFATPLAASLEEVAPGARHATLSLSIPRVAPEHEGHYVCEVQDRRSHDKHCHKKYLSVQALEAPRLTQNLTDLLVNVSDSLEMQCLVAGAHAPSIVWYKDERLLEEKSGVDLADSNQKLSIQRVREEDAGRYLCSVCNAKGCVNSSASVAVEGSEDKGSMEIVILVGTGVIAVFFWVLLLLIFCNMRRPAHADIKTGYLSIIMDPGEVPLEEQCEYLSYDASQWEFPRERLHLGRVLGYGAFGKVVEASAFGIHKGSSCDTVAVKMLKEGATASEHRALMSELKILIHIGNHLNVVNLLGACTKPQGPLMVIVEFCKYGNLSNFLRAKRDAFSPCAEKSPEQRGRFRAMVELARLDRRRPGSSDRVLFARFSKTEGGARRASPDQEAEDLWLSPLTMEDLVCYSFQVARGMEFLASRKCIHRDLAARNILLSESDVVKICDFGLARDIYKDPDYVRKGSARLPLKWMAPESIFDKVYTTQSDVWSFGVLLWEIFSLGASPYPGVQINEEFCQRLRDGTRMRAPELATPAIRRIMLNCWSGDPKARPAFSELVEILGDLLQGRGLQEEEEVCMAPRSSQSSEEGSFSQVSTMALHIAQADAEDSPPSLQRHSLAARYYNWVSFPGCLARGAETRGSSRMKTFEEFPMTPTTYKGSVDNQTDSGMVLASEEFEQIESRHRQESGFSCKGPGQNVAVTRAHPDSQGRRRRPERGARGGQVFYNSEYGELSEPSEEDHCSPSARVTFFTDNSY
Chain of UniProt O60894 (whole entry, looked up): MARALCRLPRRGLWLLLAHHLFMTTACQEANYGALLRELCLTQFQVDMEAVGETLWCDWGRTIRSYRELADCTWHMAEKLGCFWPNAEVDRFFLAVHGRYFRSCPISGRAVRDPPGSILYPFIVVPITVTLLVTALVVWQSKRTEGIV
Chain of UniProt O00270 (whole entry, looked up): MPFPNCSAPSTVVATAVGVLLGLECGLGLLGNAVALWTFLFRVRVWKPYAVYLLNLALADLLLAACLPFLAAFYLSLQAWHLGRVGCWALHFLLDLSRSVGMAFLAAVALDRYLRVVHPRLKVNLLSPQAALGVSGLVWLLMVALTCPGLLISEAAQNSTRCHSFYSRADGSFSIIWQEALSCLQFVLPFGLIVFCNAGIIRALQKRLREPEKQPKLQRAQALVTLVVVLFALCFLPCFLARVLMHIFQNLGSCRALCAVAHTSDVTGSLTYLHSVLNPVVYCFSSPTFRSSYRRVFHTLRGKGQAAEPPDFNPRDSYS
Chain of UniProt Q16602 (whole entry, looked up): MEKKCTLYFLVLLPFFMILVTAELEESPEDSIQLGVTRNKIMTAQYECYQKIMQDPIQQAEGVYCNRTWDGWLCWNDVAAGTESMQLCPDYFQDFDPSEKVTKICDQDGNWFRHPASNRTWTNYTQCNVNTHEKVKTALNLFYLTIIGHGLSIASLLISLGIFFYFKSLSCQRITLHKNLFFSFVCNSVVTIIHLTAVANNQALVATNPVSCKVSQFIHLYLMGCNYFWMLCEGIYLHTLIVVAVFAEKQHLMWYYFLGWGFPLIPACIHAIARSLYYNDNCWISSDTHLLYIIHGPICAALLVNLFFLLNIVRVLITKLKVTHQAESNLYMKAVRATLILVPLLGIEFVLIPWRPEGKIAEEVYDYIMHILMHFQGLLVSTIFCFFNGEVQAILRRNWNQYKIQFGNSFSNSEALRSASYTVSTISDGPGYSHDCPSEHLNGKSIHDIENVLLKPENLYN

SMILES	tested on	test	system	conditions	scale	endpoint	value
O=[N+]([O-])c1ccc(N2CCC(NCCC(O)c3ccc(F)c4ccccc34)CC2)c(C(F)(F)F)c1 (stereo not shown)	Salmonella typhimurium	genotoxicity, SOS/umu test	TA1535/pSK1002	0.008 mg/mL, 4 h, without S9, lower range	–	induction factor	1.1
O=C(O)C(F)(F)C(F)(F)C(F)(F)C(F)(F)C(F)(F)C(F)(F)C(F)(F)F	Caenorhabditis elegans	LC-MS/MS	N2 L4 larvae, worm pellet	500 µM, 48 h	–	internal concentration	46.9 µM
O=C(O[C@@H]1O[C@@H]2COC(=O)c3cc(O)c(O)c(O)c3-c3c(cc(O)c(O)c3O)C(=O)O[C@H]([C@H]1O)[C@@H]2O)c1cc(O)c(O)c(O)c1	Artemia salina	–	seawater	24 h, nauplii	–	LC50	589 µg/mL (≈ 928 µM)
O=[N+]([O-])c1ccc(NC2CCNCC2)c(C(F)(F)F)c1	Salmonella typhimurium	genotoxicity, SOS/umu test	TA1535/pSK1002	0.004 mg/mL, 4 h, without S9, full range	–	induction factor	0.5
N=C(N)NCCC[C@@H]1NC(=O)[C@H](CCCCNC(=O)c2ccc(CNC34CNCCNCC(N)(CNCCNC3)CNCCNC4)cc2)NC(=O)[C@@H](Cc2ccc(O)cc2)NC(=O)[C@H](CC(=O)O)NC(=O)CNC1=O [copper-64 labelled]	–	ex vivo biodistribution	male athymic nude mouse, PC-3 tumour, intestine	7.4 MBq, 48 h	–	tissue uptake	1.6 ± 0.51 %ID/g
COc1ccnc(C(=O)N[C@H]2COC(=O)[C@H](Cc3ccccc3)[C@@H](OC(=O)C(C)C)[C@H](C)OC2=O)c1OCOC(=O)C(C)C	Colinus virginianus	–	–	acute	–	LD50	> 2000 mg/kg
CN(CC(C)(C)C)N=O	Escherichia coli	plate incorporation	WP2uvrA pKM101, methanol	1500 µg/plate, without S9	–	revertant colonies per plate	132 and 134
O=C1O[C@H]2[C@@H]3OC(=O)c4cc(O)c(O)c(O)c4-c4c(O)c(O)c5oc(=O)c6c(c(O)c(O)c7oc(=O)c4c5c76)-c4c(cc(O)c(O)c4O)C(=O)OC[C@H]3OC(O)[C@@H]2OC(=O)c2cc(O)c(O)c(O)c2-c2c1cc(O)c(O)c2O (mixture of isomers)	Artemia salina	–	seawater	24 h, nauplii	–	LC50	820 µg/mL
COc1cc(CCC[P+](c2ccccc2)(c2ccccc2)c2ccccc2)c(OC)c2c1OCO2.[I-]	HL-60(TB)	SRB	–	–	–	Log10LC50	> -4 log M
O=C(O)C(F)(OC(F)(F)C(F)(F)C(F)(F)F)C(F)(F)F (stereo not shown)	Caenorhabditis elegans	LC-MS/MS	N2 L4 larvae, exposure medium supernatant	500 µM, 48 h	–	concentration	188 µM
O=NN1CCN(C2CCCC2)CC1	Escherichia coli	mutagenicity, Ames plate incorporation	WP2 uvrA pKM101	50 µg/plate, 3 d, without S9, methanol	–	revertant colonies per plate	116 ± 19
[2H]c1c([2H])c([C@]2([2H])CCCN2C(=O)C(C)(C)Oc2ccc3cn[nH]c3c2)c([2H])c([2H])c1C([2H])([2H])[2H]	FLT4 (Homo sapiens, UniProt P35916)	KINOMEscan	–	1 µM	reference: DMSO control	remaining binding	69%
COc1cccc(-c2n[nH]c(SCc3ccccn3)n2)c1OC	Salmonella typhimurium	Ames test, plate incorporation	TA1535	0.13 mg/plate, with rat liver S9	–	revertant colonies per plate	14
COc1cnc(OC)n2nc(NS(=O)(=O)c3c(OCC(F)F)cccc3C(F)(F)F)nc12	Triticum aestivum	inhibited, hydroponic germination	seedlings	50 µg/mL, 4 days	–	root length	inhibited
CN(N=O)c1ccc(F)cc1	Escherichia coli	mutagenicity, Ames plate incorporation	WP2 uvrA pKM101	50 µg/plate, 3 d, without S9, methanol	–	revertant colonies per plate	128 ± 10
Cc1cc(C(=O)NC(C)(C)COc2cccc3c2C(N)=NS(=O)(=O)N3)cc(C)n1	Escherichia coli	Ames test, confirmatory	WP2 uvrA	333 µg/plate	reference: solvent control	revertant ratio	1.1
OC(CCN1CC=C(c2ccc(F)cc2)CC1)c1ccc(F)c2ccccc12 (stereo not shown)	Salmonella typhimurium	genotoxicity, SOS/umu test	TA1535/pSK1002	0.008 mg/mL, 4 h, without S9, full range	–	induction factor	1.4

SMILES	tested on	test	system	conditions	scale	endpoint	value
CC1(F)CN(C(=O)Cn2c(=O)c(C(=O)NCc3ccc(Cl)cc3)cc3nc(N4CCNC4=O)cnc32)C1	herpes simplex virus 2	cytopathic effect	G	–	reference: CC50 over EC50	selectivity index	> 46.9
Oc1ccc2c3c1O[C@H]1[C@@H](O)CC[C@@]4(O)[C@@H](C2)N(CC2CCC2)CC[C@]314	12-(S)-hydroxy-5,8,10,14-eicosatetraenoic acid receptor (GPR31, Homo sapiens, UniProt O00270)	β-arrestin recruitment, TANGO luminescence, item: GPR31	–	concentration not given	reference: basal luminescence	log2 fold change	-0.033
Fc1ccc(C2=CCNCC2)cc1	Salmonella typhimurium	genotoxicity, SOS/umu test	TA1535/pSK1002	0.5 mg/mL, 4 h, without S9, full range	–	induction factor	0.9
CC(C)C[C@H](NC(=O)[C@H](Cc1c[nH]cn1)NC(=O)[C@H](Cc1c[nH]cn1)NC(=O)[C@H](Cc1ccc(O)cc1)NC(=O)[C@@H](N)CS)C(=O)N[C@H](C(=O)N[C@@H](CC(C)C)C(=O)N[C@H](C(=O)N[C@H](C(=O)NCC(=O)NCC(=O)N[C@@H](CO)C(=O)O)C(C)C)[C@@H](C)O)C(C)C	Epstein-Barr virus	–	B-NDG humanized mouse, EBV-infected	20 mg/kg, day 14	–	body weight	20.9 g and 20.5 g and 21.8 g
C[C@@H]1O[C@@H](OC[C@H]2O[C@@H](Oc3c(-c4ccc(O)c(O)c4)oc4cc(O)cc(O)c4c3=O)[C@H](O)[C@@H](O)[C@@H]2O)[C@H](O)[C@H](O)[C@H]1O	Artemia salina	–	seawater	24 h, nauplii	–	LC50	621 µg/mL (≈ 1020 µM)
CC(=O)N1CCC(C(=O)N2CCN3C(=O)c4cc(-c5ccccc5)ccc4NC(=O)C3C2)CC1 (stereo not shown)	Escherichia coli	–	WP2 uvrA	500 µg/plate, with rat liver S9	reference: vehicle	revertant fold increase	1.2
COc1cc2c(Oc3ccc4[nH]c(C)cc4c3F)ccnc2cc1OCC1(N)CC1	–	–	paediatric refractory sarcoma patients	8 mg	–	Fever incidence	0%
CC(C)N(C)N=O	Escherichia coli	mutagenicity, Ames plate incorporation	WP2 uvrA pKM101	150 µg/plate, 3 d, without S9, methanol	–	revertant colonies per plate	142 ± 14
Nc1nc2c(ncn2COCCO)c(=O)[nH]1	herpes simplex virus 2	RT-qPCR	HeLa, compound-resistant	–	reference: CC50 over IC50	therapeutic index	4.85
[Cl-].[Cl-].[Pt+2].[Ru+2].c1ccc(-c2nc3ccccc3nc2-c2ccccn2)nc1.c1cnc2c(c1)ccc1cccnc12.c1cnc2c(c1)ccc1cccnc12	Danio rerio	–	embryos	30 µM, 0 h	–	survival rate	100%
CC(C)C[C@H](NC(=O)[C@H](C)NC(=O)[C@@H](NC(=O)[C@H](C)NC(=O)[C@H](CC(C)C)NC(=O)[C@H](CC(=O)O)NC(=O)[C@@H]1CCCN1C(=O)[C@@H]1CCCN1C(=O)[C@H](CC(=O)O)NC(=O)[C@H](Cc1ccccc1)NC(=O)[C@H](Cc1c[nH]c2ccccc12)NC(=O)[C@H](CC(C)C)NC(=O)[C@H](C)NC(=O)[C@@H](NC(=O)[C@H](C)NC(=O)[C@H](CC(C)C)NC(=O)[C@H](CC(=O)O)NC(=O)COCC(=O)NCCCOCCOCCOCCCNC(=O)COCC(=O)NCCCOCCOCCOCCCNC(=O)CCC(C(=O)O)N1CCN(CC(=O)O)CCN(CC(=O)O)CC1)C(C)C)C(C)C)C(=O)N[C@@H](Cc1c[nH]c2ccccc12)C(=O)N[C@@H](Cc1ccccc1)C(=O)N[C@@H](CC(=O)O)C(N)=O (stereo partly shown) [gallium-68 labelled]	–	radio-HPLC	healthy C57BL/6 mice, plasma	intravenous, 4 MBq, 60 min, ex vivo analysis	–	intact parent in plasma	41 ± 14%
COCCN(CCOC)N=O	Escherichia coli	mutagenicity, Ames plate incorporation	WP2 uvrA pKM101	150 µg/plate, 3 d, without S9, methanol	–	revertant colonies per plate	120 ± 18
COc1cc(Nc2ncc(F)c(Nc3ccc4c(n3)NC(=O)C(C)(C)O4)n2)cc(OC)c1OC	Calcitonin-gene-related peptide receptor, CALCRL/RAMP1 (Homo sapiens, UniProt O60894+Q16602)	–	–	–	–	IC50	> 10000 nM
CSCC[C@H](NC(=O)[C@H](Cc1c[nH]cn1)NC(=O)[C@H](Cc1ccccc1)NC(=O)[C@@H]1CCCN1C(=O)[C@H](CCCCN)NC(=O)[C@H](CCC(=O)O)NC(=O)[C@H](Cc1c[nH]c2ccccc12)NC(=O)[C@H](CC(C)C)NC(=O)[C@@H](N)CCCNC(=N)N)C(=O)O	HLA class I histocompatibility antigen, A alpha chain allele A*02:01	binding	–	–	–	IC50	992 nM
[Cl-].[Cl-].[Pt+2].[Ru+2].c1ccc(-c2nccnc2-c2ccccn2)nc1.c1cnc2c(c1)ccc1cccnc12.c1cnc2c(c1)ccc1cccnc12	Danio rerio	–	embryos	45 µM, 72 h	–	survival rate	70 ± 1.6%
CC[C@H](C)[C@H](NC(=O)[C@H](Cc1ccccc1)NC(=O)[C@@H]1CCCN1C(=O)CNC(=O)[C@H](Cc1ccc(O)cc1)NC(=O)[C@H](CCSC)NC(=O)[C@@H](N)CCCNC(=N)N)C(=O)N[C@@H](Cc1c[nH]cn1)C(=O)N[C@@H](Cc1ccccc1)C(=O)O	HLA class I histocompatibility antigen, A alpha chain allele A*02:01	binding	–	–	–	IC50	1890 nM
Cc1c(Cl)c(=O)oc2cc(OCCCC[Se]C#N)ccc12	Caenorhabditis elegans	–	N2 Bristol, NGM with E. coli OP50	5 µM, 3 days	–	developmental defects	0%

Some of these lines once more:
SMILES	tested on	test	system	conditions	scale	endpoint	value
O=C(O)C(F)(OC(F)(F)C(F)(F)C(F)(F)F)C(F)(F)F (stereo not shown)	Caenorhabditis elegans	LC-MS/MS	N2 L4 larvae, exposure medium supernatant	500 µM, 48 h	–	concentration	188 µM
O=NN1CCN(C2CCCC2)CC1	Escherichia coli	mutagenicity, Ames plate incorporation	WP2 uvrA pKM101	50 µg/plate, 3 d, without S9, methanol	–	revertant colonies per plate	116 ± 19
[2H]c1c([2H])c([C@]2([2H])CCCN2C(=O)C(C)(C)Oc2ccc3cn[nH]c3c2)c([2H])c([2H])c1C([2H])([2H])[2H]	FLT4 (Homo sapiens, UniProt P35916)	KINOMEscan	–	1 µM	reference: DMSO control	remaining binding	69%
